Published values pooled from the literature.
Every numbered part comes from another study and shows a few of its results, in no order. Substitutions count along the parent as printed.

Series 1
Target: CCND2, cyclin fold, Cln2 fusion (human)
Method: yeast growth competition, sequencing
Matrix: yeast
Setting: weak parent motif
Relative to: not given
Reading: higher = stronger binding
Parent: MASTL docking peptide (human); PMIAKNLMCELDE; partner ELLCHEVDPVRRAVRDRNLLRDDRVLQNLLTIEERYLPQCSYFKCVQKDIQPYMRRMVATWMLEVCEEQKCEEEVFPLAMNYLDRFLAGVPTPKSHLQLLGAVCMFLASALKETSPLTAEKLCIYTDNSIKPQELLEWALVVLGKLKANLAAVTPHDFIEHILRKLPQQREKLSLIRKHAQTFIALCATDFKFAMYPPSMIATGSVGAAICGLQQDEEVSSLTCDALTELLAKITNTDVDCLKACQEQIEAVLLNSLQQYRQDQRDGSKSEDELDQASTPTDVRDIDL
Substitution | normalised enrichment score
N6I | 0.188
L7I | -0.0265
E10K | 0.299
A4F | 0.027
N6D | 0.072
L11S | 0.346
C9H | -0.158
D12K | 0.233
L7W | 0.144
L11V | 0.0559
N6H | -0.2
N6A | -0.14
L7C | 0.266

Series 2
Target: RNA binding protein fox-1 homolog 2, RRM domain, GST-SBP tag (RBFOX2, Homo sapiens, UniProt O43251-10, residues 100-194)
Method: RNA Bind-n-Seq
Form: RNA
Matrix: in vitro
Tested at: 365 nM
Setting: natural RNA segment, single round, ends assumed
Relative to: no-protein control
Reading: higher = stronger binding
All sequences stand within: GGGAGUUCUACAGUCCGACGAUC … UGGAAUUCUCGGGUGCCAA
Residues (chain): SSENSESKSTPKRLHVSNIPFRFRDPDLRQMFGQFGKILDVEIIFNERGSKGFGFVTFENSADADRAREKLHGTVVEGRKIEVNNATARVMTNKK
Strand | RBNS enrichment (R)
UCAUAUAGUCAAUGUAAAAAUACACUAAUGAGUAUUUGGUAAAUCCCAGUAGGCUUUUACCAUUAGCAUAAUUUUGUGUUGUACAAUUAAGUUACAAUUACAUCUCUAAU | 0.324
ACUGCAAAUUUAAGUCAGCAUUUUUAGGACAGAGUGCUUGGAGAAGUGCUUUUUUGCAGUCUCCUUUGUUGCUGAUUUCAUGUGUCCGAUUCCUUCUGUAUGUCAUUCUU | 0.478
UUAGCUUGAACUACUUUGCAGUAAUUUAUUUGACAGAUCUCUAUUCUAUAAAUGUGUAAUGUGAUGAAGAAAGAGAUCUUUCUUUUUUAAUGAAAACAUUAAUGUGUUAA | 1
AUGAAUCCUGGGACAUGCUGAUGACUGUAAACUGGCCUUUCCGAGUCAUAGAAAAAAAAAAGAUGGCCUUAUUUCUCCAGAAGUGAGUGAACCACACUUCCAGGCUAUUU | 0.482
AAAAAACAAAAUAUAUUUUAGAUUUCUCCCCUAAAGUUAGUUAGAGAAAAAGGUCUAUUCUUCAGCAGAUCACUGUGGCCCCUCUUGGAGCUGGGUGUUUUCAAAUUUUC | 0.466
UCAUUAUCAUUAGGACCAUCAGAUUUUAGAUUAAGCUGCUAUUGAAUUAAUAAAAUCCCAAUGAAGCAGAGUUAUAGGGAUAGAUUUAUAGCUGGCAGAGUGGUAUCAAA | 0.473

Series 3
Target: Interferon regulatory factor 5, full length, phosphomimetic (IRF5, Homo sapiens, UniProt Q13568-2, residues 1-514, K96S/S451D/S453D/S456D/S462D)
Method: protein-binding microarray
Form: double-stranded DNA, one strand shown
Matrix: in vitro
Tested at: 250 nM
Setting: 60-bp whole probe
Added: salmon DNA 0.4 mg/ml
Relative to: random background probes
Reading: higher = stronger binding
All sequences stand within: GCCTAGCAC … GTCTTGATTCGCTTGACGCTGCTG
Strand | log fluorescence [z-score]
GACGATATCGGGTATAGAGACGTGCTA | 1.89
CCCACTTTCAGTTCTCCCTTGTGCTAG | 7.17
GCCGGACTGGGGTTTCGGGACGTGCTA | 1.03
TTAGGGTTCGGGTTTCGGTTAGTGCTA | 7.13
GCCGGTTTCCTTCTCCTGACGTGCTAG | 1.14
GCTTCCTCCTACCCGACCCCGTGCTAG | 0.15
TCAAGCCTCTGCATTCCCACTGTGCTA | -0.328
TTAGATATCGGGACTGGACTAGTGCTA | 1.01
CACGGTCTCCTTATCCTGACGTGCTAG | -0.19
TCATCAACCAGTTTTCTTACTGTGCTA | 0.857
GACGGTTTCCTTCTGCTGACGTGCTAG | 0.853
TTAGGTATCGAAACTGGGTTAGTGCTA | 6.64
TTAGAGCTGAGTATCGATTAGTGCTAG | 6.32
TTAGGGCTCGGACTGGGTTAGTGCTAG | -0.622
TTATATTTCAGTTCCGATTAGTGCTAG | 3.31

Series 4
Target: Histone acetyltransferase KAT6A, winged helix 1, GST fusion (KAT6A, Homo sapiens, UniProt Q92794, residues 1-85)
Method: protein binding microarray
Form: double-stranded DNA, one strand shown
Matrix: in vitro
Tested at: not given
Setting: 8-mer, flanks averaged, mean of 2 arrays, mostly near background
Relative to: not given
Reading: higher = stronger binding
Target sequence (chain): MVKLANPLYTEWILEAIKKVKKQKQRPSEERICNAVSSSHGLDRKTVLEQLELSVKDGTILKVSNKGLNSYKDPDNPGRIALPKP
Strand | E-score
AGTTATTC | -0.0767
ACCGGGTC | 0.256
CAGCAGTC | -0.0554
TAAGTAGA | -0.163
CCCGCTCA | 0.305
AATATTAA | -0.0372
GTTAAACA | -0.0993
GAAAAACA | -0.188
GACCCTAA | -0.161
ACCAAGCA | -0.221
GGGCCACC | 0.0227
CGGGCAAA | 0.226
CCAAGGTC | -0.146
GGACGGAC | 0.24
GCTGACAC | 0.0497

Some of these lines once more (series 3):
Strand | log fluorescence [z-score]
TTAGATATCGGGACTGGACTAGTGCTA | 1.01
CACGGTCTCCTTATCCTGACGTGCTAG | -0.19
TCATCAACCAGTTTTCTTACTGTGCTA | 0.857
GACGGTTTCCTTCTGCTGACGTGCTAG | 0.853
